Assay results from different studies.
Each line is one published result; not all experiments were run side by side. Values joined by “and” are separate records of one study, mostly repeats; a detail may differ. Numbers after ± are the reported error.

SMILES	cell line	assay	test system	conditions	how to read	endpoint	result
CC(C)c1ccc(N(C)c2ccc3c(c2)OCC[C@H]3CNc2cnccc2C(=O)O)cc1	TE-5	cell growth or viability, ATP luminescence		7 days		IC50	8.47 nM
N#Cc1cccc(/C=C/C(=O)c2ccc(O)cc2)c1	U-87 MG	refers to: HSPA4L		concentration not given	reference: untreated	fold change	175
Cc1n[nH]c(C)c1CCCOc1cc(C(=O)NCCCCC(NC(=O)CN2CCN(CC(=O)[O-])CCN(CC(=O)[O-])CCN(CC(=O)[O-])CC2)C(=O)NCC2CCC(C(=O)NC(Cc3ccc4ccccc4c3)C(=O)NCCCCC(NC(=O)NC(CCC(=O)O)C(=O)O)C(=O)O)CC2)ccc1F.[177Lu+3] (centres unmarked)	PC-3 (PSMA-negative)					uptake	0.91 ± 0.06%
COc1ccccc1-c1ccncc1C(=O)Nc1nnc(OCc2ccc(Cl)cc2)s1	MDA-MB-231			1.5 µM, single replicate		colony count	24 and 33 and 36 and 22
[Cl-].[Cl-].[Ru+2].c1ccc(-c2ccccn2)nc1.c1ccc(-c2ccccn2)nc1.c1ccc2cc3nc4c5cccnc5c5ncccc5c4nc3cc2c1	SK-MEL-28	photocytotoxicity		light 633 nm, oxygen 1%		EC50	133000 ± 6000 nM
Cc1ncsc1-c1ccc(C(C)NC(=O)C2CC(O)CN2C(=O)C(NC(=O)CCCCCCCCCCN2CCCC(Nc3ncc(Cl)c(Nc4ccccc4S(=O)(=O)C(C)C)n3)C2)C(C)(C)C)cc1 (centres unmarked)	22Rv1	RNA-seq, refers to: PHLDB3 mRNA		concentration not given	reference: DMSO	log2 fold change	-1.99
CNS(=O)(=O)Nc1nccc(Cc2c(C)c3ccc(Oc4ncccc4F)cc3oc2=O)c1F	EBC-1	cell viability		7 days		IC50	32 nM
CN1CCN(C(=O)c2ccc(-c3cc4c(N5CCC[C@H](C(=O)NCc6ccc(OC(F)(F)F)cc6)C5)ncnc4[nH]3)cc2)CC1	NCI-H3122	cell growth or viability, MTT		0.0016 µg/mL, 72 h		inhibition	9.45%
Cn1ncc2cc(-c3cncc(Cl)c3N3CCC4(CCNC4=O)CC3)ccc21	LS174T	gene expression, microarray, refers to: POU2AF1 (BOB1) mRNA		concentration not given, 24 h	reference: untreated cells	log2 fold change	2.45
COc1ccc2c(c1)c(CC(=O)[Se]CC(=O)Nc1cccc(C(F)(F)F)c1)c(C)n2C(=O)c1ccc(Cl)cc1	NCI60 prostate subpanel (PC-3, DU-145)	cell growth, inhibitor		five-dose		GI50	1670 nM
CN1CCCNC(=O)c2cccc(c2)C(=O)NCCCN(C)CCCNc2cccc3c2C(=O)c2cccc(c2C3=O)NCCC1	SAS	RNA-Seq, refers to: NUDT12 mRNA		1 µM, 6 h	reference: untreated cells	log2 fold change	1.95
Cc1cc(Cl)cc(-c2ccnc3cc(CN4C(=O)C5C(C4=O)C5(C)C)sc23)c1C[C@@H]1CNCCO1 (some centres unmarked)	CHP-212 resistant subline R3	annexin V/PI flow cytometry		1 µM, 48 h		apoptotic cells	15.6% and 16.3% and 17.4%
CNc1ncnc2c1ncn2C1OC(CO)C(O)C1O (centres unmarked)	mock-transfected cells	TGFα shedding, agonist		100 µM	reference: unstimulated vehicle control	AP-TGFα release	3.76% and 4.09% and 3.91%
O=C(C[Se]C(=O)c1ccccc1Nc1ccccc1)Nc1cccc(C(F)(F)F)c1	NCI60 prostate subpanel (PC-3, DU-145)	cell growth		10 µM, 48 h, one-dose		mean growth percent	-78.6%
CO[C@@H]1[C@@H](OC(N)=O)[C@@H](O)[C@H](Oc2ccc3c(O)c(NC(=O)c4ccc(O)c(CC=C(C)C)c4)c(=O)oc3c2C)OC1(C)C	HCT-116 parental			75 µM	reference: untreated	colony survival	79.2%
O=C(N[C@@H](Cc1ccc(OCCCCC2CCNCC2)cc1)C(=O)O)c1nc2ccccc2o1.O=C(O)C(F)(F)F	platelets	impedance aggregometry	human, diluted whole blood	50 nM, added: ADP	reference: untreated	ADP-induced aggregation	0.802 and 0.774 and 0.784 and 0.994 and 0.485

SMILES	cell line	assay	test system	conditions	how to read	endpoint	result
COC(=O)c1cc(NC2=NC(=O)C(=Cc3ccc(N(C)C)cc3)S2)ccc1OC(C)=O	MCF7	GC-MS, refers to: Inosine		1 µM	reference: DMSO	metabolite level	0.8 fold change
CC1(C)CC[C@@]2(CO)C(=C3C=C[C@@H]4[C@@]5(C)CC[C@H](O)[C@@](C)(CO)[C@@H]5CC[C@@]4(C)[C@]3(C)C[C@@H]2O)C1	HepG2, negative control siRNA	Western blot, refers to: SIRT1		concentration not given, high dose, unit not given, added: ethanol	reference: β-actin	protein level	1.97 and 1.33 and 1.62
O=C(C[Se]C(=O)c1cccnc1Nc1cccc(C(F)(F)F)c1)Nc1cccc(C(F)(F)F)c1	NCI60 prostate subpanel (PC-3, DU-145)	cell growth		10 µM, 48 h, one-dose		mean growth percent	-89.8%
CCN(C(=O)c1cc(F)ccc1Oc1nncnc1N1CCC2(C1)CN([C@H](CCCN(C)CCOC)C(C)C)C2)C(C)C	Hs 729	cell growth		168 h		GI50	> 10000 nM
O=C(C[Se]C(=O)c1ccccc1Nc1cccc(C(F)(F)F)c1)Nc1cccc(C(F)(F)F)c1	NCI60 breast subpanel mean	cell growth				TGI	3940 nM
O=C(N1CCCC1)n1cc(-c2ccc(-c3ccccc3)cc2)nn1	mouse T cells	N-terminal labelling proteomics, refers to: NIBAN N-terminal peptides		0.001 µM, 6 h	reference: DMSO	SILAC ratio	1.3
COC1=C2CC(C)CC(OC)C(O)C(C)C=C(C)C(OC(N)=O)C(OC)C=CC=C(C)C(=O)NC(=CC1=O)C2=O (centres unmarked)	Rh30	ChIP-seq, refers to: H3K36me3 peak		concentration not given, KLF10 non-coding chr8:103658800-103665999	reference: untreated control	log fold change	-0.885
N#C[C@@H]1CC(F)(F)CN1C(=O)CNC(=O)c1ccnc2c(NC(=O)CCOCCOCCOCCOCCOCCOCCNC(=O)[C@H](CCCCNC(=O)CN3CCN(CC(=O)[O-])CCN(CC(=O)[O-])CCN(CC(=O)[O-])CC3)NC(=O)CCCc3ccc(I)cc3)cccc12.[177Lu+3]	U-87 MG			4 h	reference: added dose	cell uptake	12.2 ± 0.82%
COc1cc(N2CCN(C(=O)C3CCCN3)CC2)ccc1Nc1ncc(Cl)c(Nc2ccccc2P(C)(C)=O)n1 (centres unmarked)	Ba/F3 EML4-ALK	annexin V flow cytometry		concentration not given, 6 h		late apoptotic cells	9.7%
C#CCOC(=O)[C@@]1(C)C=C(C(=O)Nc2cccc(C(=O)Nc3ccc(C)c(Nc4nccc(-c5cccnc5)n4)c3)c2)C(=O)CC1	SH-SY5Y MKK7 active	western blot, refers to: phospho-c-Jun Ser73		1 µM, unit not given	reference: doxycycline without inhibitor	phospho-c-Jun level	0.382
Cc1cccc(-c2cccc(C)n2)n1.Cc1cccc(-c2cccc(C)n2)n1.F[P-](F)(F)(F)(F)F.F[P-](F)(F)(F)(F)F.[Ru+2].c1cc2ccc3ccc(-c4nc5c6cccnc6c6ncccc6c5[nH]4)c4ccc(c1)c2c34	SK-MEL-28			normoxia, added: green light 523 nm, 100 J/cm2	reference: dark over light EC50	phototoxicity index	12
CCN(CC)CC(=O)Nc1cccc(-n2cc(-c3ccc4ccc(-c5cn(-c6cccc(NC(=O)CN(CC)CC)c6)nn5)cc4c3)nn2)c1	RCC4	PCR array, refers to: HGF		5 x IC50, 4 h, normoxia	reference: untreated	fold regulation	1.06
C=CC(=O)N1CCC[C@@H](n2nc(-c3ccc(Oc4ccccc4)cc3)c3c(N)ncnc32)C1	U2932	cell growth or viability, WST-1		72 h		GI50	> 10000 nM
Cc1cccc(-c2cccc(C)n2)n1.Cc1cccc(-c2cccc(C)n2)n1.F[P-](F)(F)(F)(F)F.F[P-](F)(F)(F)(F)F.[Ru+2].c1ccc2c(c1)Cc1cc(-c3nc4c5cccnc5c5ncccc5c4[nH]3)ccc1-2	SK-MEL-28			1% O2, added: blue light 453 nm, 100 J/cm2	reference: dark over light EC50	phototoxicity index	1
CSC(=S)N/N=C(\C)c1ccc(Nc2nnc(-c3ccc(Cl)cc3)c3ccccc23)cc1	HepG2	cell growth or viability, MTT		2.5 µM		cell death	92.8%
CSCC[C@H](NC(=O)[C@H](CCC(N)=O)NC(=O)[C@H](CCCCN)NC(=O)[C@H](CCCNC(=N)N)NC(=O)[C@H](Cc1ccc(O)cc1)NC(=O)[C@H](CCCNC(=N)N)NC(=O)[C@H](CO)NC(=O)[C@H](Cc1ccc(O)cc1)NC(=O)[C@H](CO)NC(=O)[C@H](CC(=O)O)NC(=O)[C@@H](NC(=O)[C@@H](N)Cc1ccccc1)[C@@H](C)O)C(=O)N[C@@H](C)C(=O)N[C@H](C(=O)N[C@@H](CCCCN)C(=O)N[C@@H](CCCCn1cc(C[C@H](NC(=O)CNC(=O)[C@H](CO)NC(=O)[C@H](CCCNC(=N)N)NC(=O)[C@H](CO)NC(=O)[C@H](CC(C)C)NC(=O)[C@H](CC(C)C)NC(=O)CNC(=O)[C@H](C)NC(=O)[C@H](CC(C)C)NC(=O)[C@H](CCCNC(=N)N)NC(=O)[C@H](Cc2c[nH]cn2)NC(=O)[C@@H](NC(=O)[C@@H](N)C(C)C)[C@@H](C)O)C(=O)N[C@H](C(=O)N[C@H](C(=O)N[C@@H](CCCCN)C(=O)N[C@@H](CC(N)=O)C(=O)N[C@@H](CC(N)=O)C(=O)N[C@@H](Cc2ccccc2)C(=O)N[C@H](C(=O)N2CCC[C@H]2C(=O)N[C@H](C(=O)N[C@@H](CC(N)=O)C(=O)N[C@H](C(=O)NCC(=O)N[C@@H](CO)C(=O)N[C@@H](CCCCN)C(=O)N[C@@H](C)C(=O)N[C@@H](Cc2ccccc2)C(N)=O)C(C)C)[C@@H](C)O)C(C)C)C(C)C)C(C)C)nn1)C(=O)N[C@@H](Cc1ccc(O)cc1)C(=O)N[C@@H](CC(C)C)C(=O)N[C@@H](C)C(=O)N[C@@H](C)C(=O)N[C@H](C(=O)N[C@@H](CC(C)C)C(=O)NCC(=O)N[C@@H](CCCCN)C(=O)N[C@@H](CCCNC(=N)N)C(=O)N[C@@H](Cc1ccc(O)cc1)C(=O)N[C@@H](CCCCN)C(=O)N[C@@H](CCC(N)=O)C(=O)N[C@@H](CCCNC(=N)N)C(=O)N[C@H](C(=O)N[C@@H](CCCCN)C(=O)N[C@@H](CC(N)=O)C(=O)N[C@@H](CCCCN)C(N)=O)C(C)C)C(C)C)C(C)C	transfected COS-7 cells	cAMP accumulation, antagonist		added: VIP		pA2	5.5

For quick reference, copied from above:
SMILES	cell line	assay	test system	conditions	how to read	endpoint	result
CC1(C)CC[C@@]2(CO)C(=C3C=C[C@@H]4[C@@]5(C)CC[C@H](O)[C@@](C)(CO)[C@@H]5CC[C@@]4(C)[C@]3(C)C[C@@H]2O)C1	HepG2, negative control siRNA	Western blot, refers to: SIRT1		concentration not given, high dose, unit not given, added: ethanol	reference: β-actin	protein level	1.97 and 1.33 and 1.62
O=C(C[Se]C(=O)c1cccnc1Nc1cccc(C(F)(F)F)c1)Nc1cccc(C(F)(F)F)c1	NCI60 prostate subpanel (PC-3, DU-145)	cell growth		10 µM, 48 h, one-dose		mean growth percent	-89.8%
CCN(C(=O)c1cc(F)ccc1Oc1nncnc1N1CCC2(C1)CN([C@H](CCCN(C)CCOC)C(C)C)C2)C(C)C	Hs 729	cell growth		168 h		GI50	> 10000 nM
